Measured values from different studies.
Compare with care: the assays were run in different laboratories. Several values in a cell are separate wells, animals, samples, runs or records. ± gives the spread as reported.
Sequence of UniProt P04843 (whole entry, looked up): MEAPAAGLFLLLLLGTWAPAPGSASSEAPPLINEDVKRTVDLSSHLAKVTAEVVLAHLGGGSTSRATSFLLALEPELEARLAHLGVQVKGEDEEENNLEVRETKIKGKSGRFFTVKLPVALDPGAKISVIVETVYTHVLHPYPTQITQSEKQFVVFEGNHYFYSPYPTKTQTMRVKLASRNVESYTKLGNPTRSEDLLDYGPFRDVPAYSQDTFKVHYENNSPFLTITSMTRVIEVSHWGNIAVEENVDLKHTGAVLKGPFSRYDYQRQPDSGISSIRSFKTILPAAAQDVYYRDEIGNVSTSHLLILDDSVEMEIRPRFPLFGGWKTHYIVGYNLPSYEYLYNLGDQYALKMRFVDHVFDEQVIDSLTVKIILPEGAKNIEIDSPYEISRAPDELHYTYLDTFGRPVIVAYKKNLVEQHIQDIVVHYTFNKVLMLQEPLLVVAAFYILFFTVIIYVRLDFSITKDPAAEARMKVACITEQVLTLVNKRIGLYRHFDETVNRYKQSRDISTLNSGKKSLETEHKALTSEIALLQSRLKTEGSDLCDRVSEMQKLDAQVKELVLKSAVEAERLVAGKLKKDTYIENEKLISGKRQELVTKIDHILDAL

CC(C)C[C@H](NC(=O)[C@H](C)NC(=O)[C@@H](NC(=O)[C@H](CCCNC(=N)N)NC(=O)[C@H](CC(C)C)NC(=O)[C@H](Cc1c[nH]c2ccccc12)NC(=O)[C@@H]1CCCN1C(=O)[C@@H](N)CCCCN)C(C)C)C(=O)N[C@@H](CS)C(=O)N1CCC[C@H]1C(=O)NCC(=O)O  viability (Vero; WST-1; 128 µM, 24 h): 107% and 108%
Oc1ccc(C2(c3ccc(O)cc3)c3ccccc3-c3ccccc32)cc1  early apoptotic cells (HepG2 spheroids, dissociated; annexin V-FITC/PI flow cytometry; 0.10 µM, 96 h): 5.7 ± 2.49%
Cn1c(C(=O)Nc2ccc3c(c2)OCCO3)cc2c(=O)n3ccccc3nc21  viability (Vero; MTT; 100 µM, 24 (unit not given)): 43.4%
CC[C@H](C)[C@H](NC(=O)CNC(=O)[C@H](CC(N)=O)NC(=O)[C@H](Cc1ccc(O)cc1)NC(=O)[C@H](CO)NC(=O)CNC(=O)[C@H](CCCNC(=N)N)NC(=O)[C@H](CCC(N)=O)NC(=O)[C@H](Cc1ccccc1)NC(=O)[C@H](Cc1ccccc1)NC(=O)[C@H](Cc1c[nH]cn1)NC(=O)[C@H](Cc1ccccc1)NC(=O)[C@@H](N)Cc1c[nH]c2ccccc12)C(=O)O  IC50 (HUVEC; cytotoxicity, MTT; 24 h, 37 °C): > 200 µM
CC[C@H](C)[C@H](NC(=O)[C@H](CCCCN)NC(=O)[C@H](CC(N)=O)NC(=O)[C@H](CCCNC(=N)N)NC(=O)[C@H](C)NC(=O)[C@H](CC(C)C)NC(=O)[C@H](CC(C)C)NC(=O)[C@H](CCSC)NC(=O)[C@H](Cc1c[nH]cn1)NC(=O)[C@H](CC(C)C)NC(=O)[C@H](CC(C)C)NC(=O)[C@H](CC(=O)O)NC(=O)[C@H](CCC(N)=O)NC(=O)[C@@H]1CCCN1C(=O)[C@H](Cc1c[nH]c2ccccc12)NC(=O)CNC(=O)[C@@H]1CCCN1C(=O)[C@H](CC(C)C)NC(=O)[C@@H](NC(=O)[C@H](Cc1ccc(O)cc1)NC(=O)[C@@H](NC(=O)[C@H](CC(C)C)NC(=O)[C@H](CCCCN)NC(=O)[C@@H](N)CCCNC(=N)N)C(C)C)C(C)C)C(=O)N[C@@H](CCCNC(=N)N)C(=O)N[C@H](C(=O)N[C@@H](CC(C)C)C(=O)N[C@@H](CCCCN)C(=O)N[C@@H](CC(N)=O)C(=O)N[C@@H](CC(N)=O)C(=O)N[C@@H](CCSC)C(=O)N[C@@H](Cc1ccccc1)C(=O)N[C@@H](CO)C(=O)N[C@@H](CCCCN)C(=O)N[C@@H](Cc1ccccc1)C(=O)N[C@@H](CCCCN)C(=O)N[C@@H](CCCCN)C(=O)N[C@@H](CC(C)C)C(=O)N[C@@H](CCCCN)C(=O)N[C@@H](CO)C(=O)N[C@@H](CC(C)C)C(=O)O)[C@@H](C)O  CC50 (PMA-differentiated THP-1; cell viability, MTT; 24 h): 23.3 µM
Oc1ccc(C(c2ccc(O)cc2)(C(F)(F)F)C(F)(F)F)cc1  necrotic cells (HepG2 spheroids; annexin V-FITC/PI flow cytometry; 1 µM, 96 h): 32.4 ± 11.3%
O=c1cc(-c2ccccc2)oc2c(O)c(O)ccc12  IC50 (uninduced SH-SY5Y Aβ-GFP cells; cytotoxicity, MTT; 24 h): 79 µM
COc1ccnc(C(=O)N[C@H]2COC(=O)[C@H](Cc3ccccc3)[C@@H](OC(=O)C(C)C)[C@H](C)OC2=O)c1OCOC(=O)C(C)C  forward mutation (mammalian cells; mammalian forward mutation; concentration not given): negative
Cc1cc(C(C)(C)c2ccc(O)c(C)c2)ccc1O  necrotic cells (HepG2 spheroids; annexin V-FITC/PI flow cytometry; 0.01 µM, 96 h): 36.5 ± 17.7%
O=C1Nc2ccccc2/C1=C1\Nc2ccccc2\C1=N/O  CC50 (Caco-2-F03): > 20 µM
CC(C)C[C@H](NC(=O)[C@H](CCCNC(=N)N)NC(=O)[C@H](Cc1c[nH]c2ccccc12)NC(=O)[C@H](CCCNC(=N)N)NC(=O)[C@H](Cc1c[nH]c2ccccc12)NC(=O)[C@H](Cc1c[nH]c2ccccc12)NC(=O)[C@H](Cc1c[nH]c2ccccc12)NC(=O)[C@H](CCCNC(=N)N)NC(=O)[C@H](Cc1c[nH]c2ccccc12)NC(=O)[C@@H](N)CCCNC(=N)N)C(N)=O  LC50 (PK-15): 344 µM
O=c1ccc2ccccc2o1  chance response (NHEK; ER stress, item: BiP; concentration not given, 6 h): 0.08%
Nc1nc(CC(O)c2ccccc2C(F)(F)F)c(Br)c(=O)[nH]1 (centres unmarked)  minimum cytotoxic concentration (HeLa; cell morphology alteration): > 100 µM
Cc1cc(NC(=O)c2cc3c(=O)n4cccc(C)c4nc3n2C)ccc1Br  viability (Vero; MTT; 1.6 µM, 24 (unit not given)): 83.2%
CCCCc1nc(N)[nH]c(=O)c1Br  minimum cytotoxic concentration (HeLa; cell morphology alteration): 100 µM
CO[C@H]1C[C@@H]2CC[C@@H](C)[C@@](O)(O2)C(=O)C(=O)N2CCCC[C@H]2C(=O)O[C@H]([C@H](C)C[C@@H]2CC[C@@H](OC(=O)NCCOCCOCCOCCOCCOCCOCCOCCOCCC(=O)N3CCc4cc(Cn5nc(-c6ccc7oc(N)nc7c6)c6c(N)ncnc65)ccc4C3)[C@H](OC)C2)C[C@@H](O)[C@H](C)/C=C(\C)[C@@H](O)[C@@H](OC)C(=O)[C@H](C)C[C@H](C)/C=C/C=C/C=C/1C  dyspnoea incidence (patients with advanced solid tumours; intravenous, 12 mg weekly, grade 3 or higher): 8.3%
N#C[C@@]1(n2ccc(N)nc2=O)O[C@H](CO)[C@@H](O)[C@H]1O  micronucleated cells (CHO; 250 µM, with S9): 0.37%
COc1cc2c(Oc3ccc4[nH]c(C)cc4c3F)ccnc2cc1OCC1(N)CC1  grade 3 Hematochezia (paediatric recurrent refractory sarcoma; 12 mg): 0%
C#CCNS(=O)(=O)c1ccc(CCN(Cc2cc(Cl)ccc2OCCC)C(=O)Cc2ccsc2)cc1  maximum tolerated dose (THP-1 ASC-GFP monocytes; MTT; 24 h): 3.11 µg/mL
CC[C@H](C)[C@H](NC(=O)[C@H](CCCCN)NC(=O)[C@H](CC(N)=O)NC(=O)[C@H](CCCNC(=N)N)NC(=O)[C@H](C)NC(=O)[C@H](CC(C)C)NC(=O)[C@H](CC(C)C)NC(=O)[C@H](CCSC)NC(=O)[C@H](Cc1c[nH]cn1)NC(=O)[C@H](CC(C)C)NC(=O)[C@@H](N)CC(C)C)C(=O)N[C@@H](CCCNC(=N)N)C(=O)N[C@H](C(=O)N[C@@H](CC(C)C)C(=O)N[C@@H](CCCCN)C(=O)N[C@@H](CC(N)=O)C(=O)N[C@@H](CC(N)=O)C(=O)N[C@@H](CCSC)C(=O)N[C@@H](Cc1ccccc1)C(=O)N[C@@H](CO)C(=O)N[C@@H](CCCCN)C(=O)N[C@@H](Cc1ccccc1)C(=O)N[C@@H](CCCCN)C(=O)N[C@@H](CCCCN)C(=O)N[C@@H](CC(C)C)C(=O)N[C@@H](CCCCN)C(=O)N[C@@H](CO)C(=O)N[C@@H](CC(C)C)C(=O)O)[C@@H](C)O  CC50 (PMA-differentiated THP-1; cell viability, MTT; 24 h): 25.1 µM
O=C(Nc1ccc(Oc2ccc(Cl)cc2)c(Cl)c1)c1cc(I)cc(I)c1O  CC50 (pigeon embryo fibroblasts): 35 µM
CC[C@H](C)[C@@H]1NC(=O)[C@@H]2CCCN2C(=O)[C@H](CC(C)C)NC(=O)[C@H](CC(C)C)NC(=O)CNC(=O)[C@@H](NC(=O)[C@@H](NC(=O)[C@H](CC(=O)O)NC(=O)CNC(=O)[C@@H](NC(=O)[C@H](C)NC(=O)CNC(=O)[C@H](CCCCN)NC(=O)[C@H](CC(C)C)NC(=O)[C@H](CC(C)C)NC(=O)[C@H](CCCCN)NC(=O)CNC(=O)[C@@H](NC(=O)[C@@H](N)CC(C)C)C(C)C)C(C)C)C(C)C)CSSC[C@@H](C(=O)O)NC1=O  log2 fold change (RNA-seq, item: Sphk1; mouse, traumatic brain injury model, frontal cortex and hippocampus; dose not given; reference: TBI alone): -1.57
O=C(Nc1ccccc1F)c1cc2c(=O)n3ccccc3nc2n1Cc1ccccc1  viability (Vero; MTT; 1.6 µM, 24 (unit not given)): 70.2%
CC(c1ccccc1)(c1ccc(O)cc1)c1ccc(O)cc1  late apoptotic cells (HepG2 spheroids, dissociated; annexin V-FITC/PI flow cytometry; 40 µM, 24 h): 9.34 ± 4.4%
CC[C@H](C)[C@H](NC(=O)[C@H](CC(=O)O)NC(=O)CNC(=O)[C@H](CCCCN)NC(=O)[C@H](C)NC(=O)[C@H](CS)NC(=O)[C@H](CC(C)C)NC(=O)[C@H](CCCNC(=N)N)NC(=O)[C@H](CO)NC(=O)[C@H](Cc1ccccc1)NC(=O)[C@H](Cc1ccc(O)cc1)NC(=O)[C@H](C)NC(=O)[C@H](CC(C)C)NC(=O)[C@H](CC(C)C)NC(=O)[C@H](CC(C)C)NC(=O)[C@H](CC(C)C)NC(=O)[C@@H]1CCCN1C(=O)[C@@H](N)CCCNC(=N)N)C(=O)N1CCC[C@H]1C(=O)N1CCC[C@H]1C(=O)N1CCC[C@H]1C(=O)N[C@@H](CC(C)C)C(=O)N[C@@H](CCCNC(=N)N)C(=O)N[C@@H](C)C(=O)N[C@@H](CC(C)C)C(=O)N1CCC[C@H]1C(=O)N[C@@H](CCCNC(=N)N)C(=O)N[C@@H](Cc1ccc(O)cc1)C(=O)N[C@@H](CCCNC(=N)N)C(=O)N[C@@H](CC(C)C)C(=O)N[C@@H](CC(C)C)C(=O)N[C@@H](CCCNC(=N)N)C(=O)N[C@@H](CC(=O)O)C(=O)N[C@@H](CC(C)C)C(=O)N1CCC[C@H]1C(=O)N[C@@H](CCCNC(=N)N)C(=O)N[C@@H](CC(C)C)C(=O)N[C@@H](CC(C)C)C(=O)N[C@@H](CCCNC(=N)N)C(=O)O  CC50 (PMA-differentiated THP-1; cell viability, MTT; 24 h): 60.6 µM
CC[C@H](C)[C@H](NC(=O)[C@H](CCCNC(=N)N)NC(=O)[C@H](Cc1c[nH]c2ccccc12)NC(=O)[C@H](CCCNC(=N)N)NC(=O)[C@H](Cc1c[nH]c2ccccc12)NC(=O)[C@H](Cc1c[nH]c2ccccc12)NC(=O)[C@H](Cc1c[nH]c2ccccc12)NC(=O)[C@H](CCCNC(=N)N)NC(=O)[C@H](Cc1c[nH]c2ccccc12)NC(=O)[C@@H](N)CCCNC(=N)N)C(N)=O  LC50 (PK-15): 180 µM
O=S(=O)(c1ccc(O)cc1)c1ccc(O)cc1  necrotic cells (HepG2 spheroids; annexin V-FITC/PI flow cytometry; 10 µM, 96 h): 36.8 ± 11.5%
N=C(N)NCCC[C@H](NC(=O)[C@H](Cc1c[nH]c2ccccc12)NC(=O)[C@H](CCCNC(=N)N)NC(=O)[C@H](Cc1c[nH]c2ccccc12)NC(=O)[C@H](Cc1c[nH]c2ccccc12)NC(=O)[C@H](Cc1c[nH]c2ccccc12)NC(=O)[C@H](CCCNC(=N)N)NC(=O)[C@H](Cc1c[nH]c2ccccc12)NC(=O)[C@@H](N)CCCNC(=N)N)C(N)=O  LC50 (PK-15): > 512 µM
CCc1ccc(NC(=O)c2cc3c(=O)n4ccccc4nc3n2C)cc1  viability (Vero; MTT; 6.3 µM, 24 (unit not given)): 73.4%
C[C@H]1CN(c2n[nH]c3nc(N[C@H]4CC[C@H](NS(=O)(=O)CCC(F)(F)F)CC4)ncc23)CCO1  remaining binding (Dolichyl-diphosphooligosaccharide--protein glycosyltransferase subunit 1 (Homo sapiens, UniProt P04843); Kinobeads competition, item: RPN1; 0.16 µM, unit not given; reference: vehicle): 0.94
CCC(C)(c1ccc(O)cc1)c1ccc(O)cc1  cell viability (MVLN; alamarBlue; 50 µM, 48 h): decreased
CC(C)C[C@H](NC(=O)OCc1ccccc1)C(=O)N[C@@H](CC(C)C)C(=O)N[C@@H](CC1CCNC1=O)C(=O)C(=O)NC1CC1 (some centres unmarked)  CC50 (RD; 5 (unit not given)): 85.3 ± 7.8 µM

A few entries again:
CC(C)C[C@H](NC(=O)[C@H](CCCNC(=N)N)NC(=O)[C@H](Cc1c[nH]c2ccccc12)NC(=O)[C@H](CCCNC(=N)N)NC(=O)[C@H](Cc1c[nH]c2ccccc12)NC(=O)[C@H](Cc1c[nH]c2ccccc12)NC(=O)[C@H](Cc1c[nH]c2ccccc12)NC(=O)[C@H](CCCNC(=N)N)NC(=O)[C@H](Cc1c[nH]c2ccccc12)NC(=O)[C@@H](N)CCCNC(=N)N)C(N)=O  LC50 (PK-15): 344 µM
O=c1ccc2ccccc2o1  chance response (NHEK; ER stress, item: BiP; concentration not given, 6 h): 0.08%
Nc1nc(CC(O)c2ccccc2C(F)(F)F)c(Br)c(=O)[nH]1 (centres unmarked)  minimum cytotoxic concentration (HeLa; cell morphology alteration): > 100 µM
Cc1cc(NC(=O)c2cc3c(=O)n4cccc(C)c4nc3n2C)ccc1Br  viability (Vero; MTT; 1.6 µM, 24 (unit not given)): 83.2%
